Assay results gathered from unrelated publications.
Lines come from different studies, so protocols differ.
Target: TRAF2 and NCK-interacting protein kinase (TNIK, Homo sapiens, UniProt Q9UKE5)

SMILES | effect on | mode | technique | concentration | reference | measurement | result
Nc1ncc(-c2cc(-c3cnn(CC(F)(F)F)c3)ncc2F)nc1C(=O)NC1CNCC(F)C1 (centres unmarked) | enzyme activity | – | – | 1 µM | DMSO control | remaining activity | 91.5%
CCN1CCN(Cc2ccc(C(=O)Nc3ccc(C)c(NCc4cnc5[nH]ccc5c4OC)c3)cc2C(F)(F)F)CC1 | binding | – | competition with immobilised ligand | 1 µM | – | remaining binding | 15%
CCN1CCN(Cc2ccc(NC(=O)c3ccc(C)c(NC(=O)c4cncc(-c5cccs5)c4)c3)cc2C(F)(F)F)CC1 | binding | – | competition with immobilised ligand | 1 µM | – | remaining binding | 18%
CNC(=O)C[C@H](Cc1ccc(C#N)cc1)NC(=O)c1cc(-c2ccc(CN[C@H](C)c3ccc(C)cc3)o2)ccc1Cl | enzyme activity | inhibitor | – | 1 µM | – | activity vs control | 100%
CNC1C[S+]2CC[S+]3CC[S+](C1)[Ru-4]321([N]=C=S)[n]2c3ccc(OC)cc3c3c4c(c5cc(F)c[n+]1c5c32)C(=O)NC4=O (centres unmarked) | – | – | KinomeScan | 0.1 µM | untreated | remaining binding | 47%
Cc1ccc(-c2c(/C=C(\C#N)C(=O)NC(C)C)n(CCCO)c3ncnc(N)c23)cc1 | cell-free assay | – | competition with immobilised ligand | 1 µM | – | remaining binding | 83%
Cc1cccc(O[C@H]2CCC[C@@H](C(C)CNCc3ccncc3)C2)c1 (relative stereo) | enzyme activity | inhibitor | – | 1 µM | – | inhibition | 0%
C=CC(=O)Nc1cccc(-c2cnc3[nH]cc(C(=O)NC(C)(C)C)c3n2)c1 | enzyme activity | inhibitor | – | 0.1 µM | – | inhibition | 35%
NC(=O)[C@@H](O)C[C@H]1CCc2sc3ncnc(O[C@H]4CC[C@H](N5CCOCC5)CC4)c3c21 | enzyme activity | inhibitor | – | 10 µM | – | inhibition | 48%
Cc1cnc2nc1Nc1cccc(c1)COC/C=C/COCc1cc(ccc1OCCN1CCOCC1)N2 | binding | – | competition with immobilised ligand | 0.1 µM | – | remaining binding | 77%
C=CC(=O)N1CCCC(n2c(=O)c3ncccc3n(Cc3ccc(Oc4ccccc4)cc3)c2=O)C1 (centres unmarked) | cell-free assay | – | competition with immobilised ligand | 1 µM | – | remaining binding | 93%
C=CC(=O)N1Cc2nc(-c3cc(-c4cc(Cl)cnc4Cl)c(F)cc3F)n(-c3ccncn3)c2C1 | cell-free assay | inhibitor | – | 1 µM | – | inhibition | 12.9%
COc1cc(Nc2nc(C)cc(-c3cnn4nc(OC)ccc34)n2)cc(C(F)(F)F)c1 | binding | – | competition with immobilised ligand | 1 µM | – | remaining binding | 74%
CN1CCN(Cc2ccc(-c3ccc(CO[C@H]4CCC[C@@H]4NC(=O)c4cc(-c5cnn(C)c5)cnc4N)cc3)cc2)CC1 | enzyme activity | inhibitor | – | 0.1 µM | – | inhibition | 8%

For quick reference, copied from above:
SMILES | effect on | mode | technique | concentration | reference | measurement | result
NC(=O)[C@@H](O)C[C@H]1CCc2sc3ncnc(O[C@H]4CC[C@H](N5CCOCC5)CC4)c3c21 | enzyme activity | inhibitor | – | 10 µM | – | inhibition | 48%
C=CC(=O)Nc1cccc(-c2cnc3[nH]cc(C(=O)NC(C)(C)C)c3n2)c1 | enzyme activity | inhibitor | – | 0.1 µM | – | inhibition | 35%
